Measurements of several laboratories.
Parts stem from different laboratories: compare values within a part only. “And” joins repeats or separate records; there may be more than shown.
UniProt O94768, sequence (whole entry, looked up): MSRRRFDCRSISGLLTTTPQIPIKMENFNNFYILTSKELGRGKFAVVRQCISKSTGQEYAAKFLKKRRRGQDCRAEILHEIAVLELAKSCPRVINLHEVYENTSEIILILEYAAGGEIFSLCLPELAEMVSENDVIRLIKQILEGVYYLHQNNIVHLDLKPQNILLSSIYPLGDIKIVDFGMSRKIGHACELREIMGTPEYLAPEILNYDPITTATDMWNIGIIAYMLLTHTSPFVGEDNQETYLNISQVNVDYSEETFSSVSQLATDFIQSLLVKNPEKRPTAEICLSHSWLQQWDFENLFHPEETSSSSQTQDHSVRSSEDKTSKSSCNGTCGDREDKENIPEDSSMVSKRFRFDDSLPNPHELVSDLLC
UniProt Q8IVH8, sequence (whole entry, looked up): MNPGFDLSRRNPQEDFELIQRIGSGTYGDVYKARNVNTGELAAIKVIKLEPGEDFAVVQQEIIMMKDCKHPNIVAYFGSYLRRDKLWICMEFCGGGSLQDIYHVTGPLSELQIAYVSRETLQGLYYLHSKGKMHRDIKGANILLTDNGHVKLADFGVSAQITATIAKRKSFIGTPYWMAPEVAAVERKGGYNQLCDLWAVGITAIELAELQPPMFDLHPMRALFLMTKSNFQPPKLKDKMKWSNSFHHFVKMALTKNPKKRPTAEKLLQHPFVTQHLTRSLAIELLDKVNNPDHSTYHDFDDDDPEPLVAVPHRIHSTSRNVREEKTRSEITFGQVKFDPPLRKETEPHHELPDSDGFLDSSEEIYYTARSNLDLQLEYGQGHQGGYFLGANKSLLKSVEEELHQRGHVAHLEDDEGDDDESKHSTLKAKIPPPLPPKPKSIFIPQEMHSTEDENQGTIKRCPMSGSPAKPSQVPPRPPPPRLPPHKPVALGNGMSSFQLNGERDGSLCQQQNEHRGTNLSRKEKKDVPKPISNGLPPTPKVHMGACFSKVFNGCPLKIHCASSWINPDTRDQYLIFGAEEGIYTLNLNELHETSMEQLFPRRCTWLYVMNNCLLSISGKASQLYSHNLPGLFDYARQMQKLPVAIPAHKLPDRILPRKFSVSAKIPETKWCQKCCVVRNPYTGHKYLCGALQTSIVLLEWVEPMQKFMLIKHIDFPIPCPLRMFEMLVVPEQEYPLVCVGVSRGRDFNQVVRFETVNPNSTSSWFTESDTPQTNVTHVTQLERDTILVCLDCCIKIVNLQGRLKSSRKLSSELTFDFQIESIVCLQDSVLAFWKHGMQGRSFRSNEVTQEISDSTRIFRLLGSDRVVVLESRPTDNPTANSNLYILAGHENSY
UniProt Q99640, sequence (whole entry, looked up): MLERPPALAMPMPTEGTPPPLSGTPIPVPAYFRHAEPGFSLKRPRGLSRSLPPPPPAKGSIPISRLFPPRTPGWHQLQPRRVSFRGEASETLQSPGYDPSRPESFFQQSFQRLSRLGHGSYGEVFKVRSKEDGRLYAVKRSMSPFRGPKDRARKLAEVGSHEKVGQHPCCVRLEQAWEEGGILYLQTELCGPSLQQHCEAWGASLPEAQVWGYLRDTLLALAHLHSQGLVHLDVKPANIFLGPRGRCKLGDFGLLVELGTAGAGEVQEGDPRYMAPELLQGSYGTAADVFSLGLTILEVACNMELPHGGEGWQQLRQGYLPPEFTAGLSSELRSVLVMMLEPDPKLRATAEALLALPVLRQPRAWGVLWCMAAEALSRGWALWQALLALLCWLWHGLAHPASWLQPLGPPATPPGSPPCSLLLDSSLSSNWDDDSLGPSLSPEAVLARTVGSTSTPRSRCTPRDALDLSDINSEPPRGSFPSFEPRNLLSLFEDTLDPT
UniProt P10721, sequence (whole entry, unmodified, looked up): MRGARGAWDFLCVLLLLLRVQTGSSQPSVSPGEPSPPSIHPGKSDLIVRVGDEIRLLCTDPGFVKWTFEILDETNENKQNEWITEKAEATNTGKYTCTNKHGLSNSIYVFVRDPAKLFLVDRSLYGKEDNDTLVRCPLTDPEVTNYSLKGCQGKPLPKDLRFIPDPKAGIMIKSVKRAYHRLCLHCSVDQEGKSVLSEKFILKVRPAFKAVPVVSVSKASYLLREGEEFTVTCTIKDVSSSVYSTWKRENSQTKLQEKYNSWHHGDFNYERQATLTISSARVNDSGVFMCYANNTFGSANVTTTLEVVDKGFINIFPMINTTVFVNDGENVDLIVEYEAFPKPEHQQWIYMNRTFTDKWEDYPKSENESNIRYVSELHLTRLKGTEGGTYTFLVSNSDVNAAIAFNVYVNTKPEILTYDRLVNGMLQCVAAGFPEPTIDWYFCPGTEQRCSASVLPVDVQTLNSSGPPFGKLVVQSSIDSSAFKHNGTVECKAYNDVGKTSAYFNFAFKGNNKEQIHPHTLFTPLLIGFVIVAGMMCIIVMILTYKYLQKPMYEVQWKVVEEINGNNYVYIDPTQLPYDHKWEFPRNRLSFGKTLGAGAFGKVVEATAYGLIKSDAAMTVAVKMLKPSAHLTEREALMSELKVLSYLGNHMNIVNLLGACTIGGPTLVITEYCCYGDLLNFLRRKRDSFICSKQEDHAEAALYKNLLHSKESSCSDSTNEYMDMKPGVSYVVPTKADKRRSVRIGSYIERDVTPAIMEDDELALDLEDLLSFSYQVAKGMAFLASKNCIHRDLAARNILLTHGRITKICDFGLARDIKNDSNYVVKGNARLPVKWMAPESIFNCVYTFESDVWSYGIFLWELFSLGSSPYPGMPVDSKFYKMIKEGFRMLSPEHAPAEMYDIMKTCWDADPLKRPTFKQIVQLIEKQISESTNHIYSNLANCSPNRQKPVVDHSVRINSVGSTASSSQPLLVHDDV
UniProt O95835, sequence (whole entry, looked up): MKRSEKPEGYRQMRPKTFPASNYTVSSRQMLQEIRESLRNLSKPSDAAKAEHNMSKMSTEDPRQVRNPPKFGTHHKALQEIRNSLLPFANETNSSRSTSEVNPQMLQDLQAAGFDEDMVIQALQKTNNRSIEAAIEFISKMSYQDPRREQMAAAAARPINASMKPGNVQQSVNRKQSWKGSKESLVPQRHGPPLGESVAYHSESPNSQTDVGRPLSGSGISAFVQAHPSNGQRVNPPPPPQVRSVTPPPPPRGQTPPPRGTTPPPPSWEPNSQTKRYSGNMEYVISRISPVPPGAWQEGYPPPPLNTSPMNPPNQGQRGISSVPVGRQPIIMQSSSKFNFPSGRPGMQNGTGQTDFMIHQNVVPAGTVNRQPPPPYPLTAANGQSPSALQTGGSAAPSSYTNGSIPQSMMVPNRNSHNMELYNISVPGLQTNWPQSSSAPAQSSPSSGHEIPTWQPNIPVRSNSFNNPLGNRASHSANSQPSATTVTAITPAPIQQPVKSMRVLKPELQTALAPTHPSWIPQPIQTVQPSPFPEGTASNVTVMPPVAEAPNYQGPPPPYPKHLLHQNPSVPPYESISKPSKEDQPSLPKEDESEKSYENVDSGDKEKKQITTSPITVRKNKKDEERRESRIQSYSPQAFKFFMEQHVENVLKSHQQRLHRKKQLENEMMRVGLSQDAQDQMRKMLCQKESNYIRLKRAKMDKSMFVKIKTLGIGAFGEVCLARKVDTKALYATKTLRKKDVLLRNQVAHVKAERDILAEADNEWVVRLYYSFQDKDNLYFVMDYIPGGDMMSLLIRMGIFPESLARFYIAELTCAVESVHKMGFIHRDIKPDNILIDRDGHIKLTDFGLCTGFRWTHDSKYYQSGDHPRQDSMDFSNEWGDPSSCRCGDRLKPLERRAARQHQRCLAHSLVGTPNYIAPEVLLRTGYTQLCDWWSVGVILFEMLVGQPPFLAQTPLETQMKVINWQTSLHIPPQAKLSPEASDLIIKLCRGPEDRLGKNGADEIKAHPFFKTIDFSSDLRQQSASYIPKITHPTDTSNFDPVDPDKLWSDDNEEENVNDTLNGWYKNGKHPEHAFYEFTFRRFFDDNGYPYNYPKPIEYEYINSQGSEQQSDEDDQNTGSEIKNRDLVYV
UniProt P36894, sequence (whole entry, looked up): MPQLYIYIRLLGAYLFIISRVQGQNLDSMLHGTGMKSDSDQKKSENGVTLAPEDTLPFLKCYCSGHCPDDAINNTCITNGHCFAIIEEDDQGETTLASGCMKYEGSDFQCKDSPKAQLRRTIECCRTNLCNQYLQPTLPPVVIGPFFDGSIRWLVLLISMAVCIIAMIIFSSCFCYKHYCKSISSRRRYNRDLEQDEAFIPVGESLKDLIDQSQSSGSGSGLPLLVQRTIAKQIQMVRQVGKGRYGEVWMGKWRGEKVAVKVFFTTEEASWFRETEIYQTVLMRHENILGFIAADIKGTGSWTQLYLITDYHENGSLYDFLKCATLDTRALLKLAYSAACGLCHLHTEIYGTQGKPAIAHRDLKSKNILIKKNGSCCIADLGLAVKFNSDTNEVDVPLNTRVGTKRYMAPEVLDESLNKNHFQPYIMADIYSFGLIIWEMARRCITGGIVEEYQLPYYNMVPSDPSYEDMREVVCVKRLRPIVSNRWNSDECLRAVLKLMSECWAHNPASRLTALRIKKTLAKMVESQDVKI
UniProt P50613, sequence (whole entry, looked up): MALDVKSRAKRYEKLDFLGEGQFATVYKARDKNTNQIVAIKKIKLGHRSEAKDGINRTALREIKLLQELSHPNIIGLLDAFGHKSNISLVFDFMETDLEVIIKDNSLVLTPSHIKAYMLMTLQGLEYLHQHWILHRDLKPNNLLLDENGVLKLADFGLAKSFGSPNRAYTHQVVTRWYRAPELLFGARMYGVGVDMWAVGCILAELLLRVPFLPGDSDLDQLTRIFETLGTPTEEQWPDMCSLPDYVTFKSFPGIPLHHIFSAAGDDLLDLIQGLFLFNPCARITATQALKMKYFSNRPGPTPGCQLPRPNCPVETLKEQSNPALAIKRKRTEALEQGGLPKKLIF

Study 1
SMILES: CC(C)(C(=O)O)[C@H](NC(=O)Cc1cccc(I)c1)c1ccc2oc(=O)[nH]c2c1
Technique: Incucyte 3D growth
Tested at: 30 µM
Reading: higher = more growth
cell line	time	spheroid area
A375	60 h	3.74e+07 a.u. and 3.52e+07 a.u. and 3.95e+07 a.u. and 1.36e+07 a.u. and 1.39e+07 a.u. and 1.69e+07 a.u.
KP-4	204 h	3.63e+07 a.u. and 5.08e+07 a.u. and 3.36e+07 a.u. and 1.76e+07 a.u. and 3.25e+07 a.u. and 3.5e+07 a.u.
MEL-JUSO	348.52 h	3.77e+07 a.u. and 3.01e+07 a.u. and 5.6e+07 a.u. and 3.93e+07 a.u. and 3.81e+07 a.u. and 4.91e+07 a.u.
A375	372.52 h	1.61e+08 a.u. and 1.71e+08 a.u. and 1.75e+08 a.u. and 1.8e+08 a.u. and 1.89e+08 a.u. and 1.65e+08 a.u.
A375	234.52 h	1.66e+08 a.u. and 1.7e+08 a.u. and 1.8e+08 a.u. and 1.86e+08 a.u. and 1.58e+08 a.u. and 1.55e+08 a.u.
A375	162 h	9.52e+07 a.u. and 1.03e+08 a.u. and 8.44e+07 a.u. and 9.92e+07 a.u. and 1.16e+08 a.u.

Study 2
Species: mouse
Sample: microsomes or S9
Tested at: 2 µM
Time: 0.5 h
SMILES	remaining compound
CCOC(=O)Cc1c(-c2cc3ccccc3n2C)[nH]c2ccccc12	0.492%
Cc1cc(C(C)(C)C)cc(C)c1CS(=O)(=O)CCCO	18.4%
CC(CCc1ccco1)NC(=O)c1cc(S(=O)(=O)N(C)C)c(Cl)cc1Cl (stereo not drawn)	3.18%
O=C(CCCCCNc1ncccn1)Nc1nc[nH]n1	75.9%
CCn1c(=O)c(C(=O)N2CCOCC2)nn(-c2ccc(S(C)(=O)=O)cc2)c1=O	71.5%
Cc1c(O)ccc(C(=O)Cc2ccccc2F)c1O	14.1%
O=C(c1ccccc1)c1ccccc1Nc1cccc2c1N(c1ncccn1)CC2	0.154%
CCc1nc(C)sc1Cn1cc(-c2cn(CC)nc2C)nn1	4.58%

Study 3
Target: HLA class I histocompatibility antigen, C alpha chain, allele C*04:01 (Homo sapiens, UniProt P10321)
Observed: peptide-MHC binding
Form: peptide
Tested at: concentration not given
Molecule	binding
MTMLTRWKI	inactive
KPIPHRTVL	inactive
RRLHRLLLM	inactive
MVRQMRAAL	inactive
WQLTSIWPI	inactive
AEFPVGSTA	inactive
MMMSTAVAF	inactive
FRMLAWHVL	inactive
EVFFGLSRY	inactive
ATYGWNLVK	inactive
LEYFQFVKKLL	inactive
WPILGFFPM	inactive
VTFGARASF	inactive
YWDQVTFFY	inactive
NRDVSFQDL	inactive
YMKERFTVL	inactive
RWFVRNPFF	inactive
MYTRNLLWL	inactive
RRYASQTEL	inactive
TFVPIAWAAAY	inactive
FTDNNELEF	inactive
MPYHGYHII	inactive
RYSNFAWYF	inactive
MTMSYLSTR	inactive
FMYEGDTPL	inactive

Study 4
Compound: Cn1cncc1[C@@](O)(COc1ccc(C#N)cc1-c1ccc(OC(F)(F)F)cc1)c1ccc(C#N)cc1
Tested at: 1 µM
target	observed	technique	remaining binding [%]
KIT (Homo sapiens, UniProt P10721, V559D)	cell-free assay	competition with immobilised ligand	97
Tyrosine-protein kinase ABL1, non-phosphorylated (ABL1, Homo sapiens, UniProt P00519, H396P)	cell-free assay	competition with immobilised ligand	88
STK4 (Homo sapiens, UniProt Q13043)	cell-free assay	competition with immobilised ligand	100
MYLK3 (Homo sapiens, UniProt Q32MK0)	cell-free assay	competition with immobilised ligand	96
CDK7 (Homo sapiens, UniProt P50613)	cell-free assay	competition with immobilised ligand	63
BRAF (Homo sapiens, UniProt P15056, V600E)	cell-free assay	competition with immobilised ligand	100
PIKFYVE (Homo sapiens, UniProt Q9Y2I7)	cell-free assay	competition with immobilised ligand	100
MET (Homo sapiens, UniProt P08581)	cell-free assay	competition with immobilised ligand	94
STK17B (Homo sapiens, UniProt O94768)	cell-free assay	competition with immobilised ligand	84
LATS1 (Homo sapiens, UniProt O95835)	cell-free assay	competition with immobilised ligand	100
CDC42BPG (Homo sapiens, UniProt Q6DT37)		competition binding	96
MAP4K5 (Homo sapiens, UniProt Q9Y4K4)	cell-free assay	competition with immobilised ligand	100
BMPR1A (Homo sapiens, UniProt P36894)	binding	competition with immobilised ligand	100
PKMYT1 (Homo sapiens, UniProt Q99640)	cell-free assay	competition with immobilised ligand	100
MAP4K3 (Homo sapiens, UniProt Q8IVH8)	cell-free assay	competition with immobilised ligand	100
PRKACB (Homo sapiens, UniProt P22694)	cell-free assay	competition with immobilised ligand	100
EGFR (Homo sapiens, UniProt P00533, L861Q)	cell-free assay	competition with immobilised ligand	100

Single results of other studies
Compound	species	sample	route	dose	endpoint	value
O=C1CCC(N2Cc3cc(C4CCN(Cc5ccccc5)CC4)ccc3C2=O)C(=O)N1 (stereo not drawn)	Sprague Dawley rat, male	plasma	intravenous	1.0 mg/kg	clearance	49.8 mL/min/kg

A few entries again (study 3):
Molecule	binding
RRLHRLLLM	inactive
MVRQMRAAL	inactive
WQLTSIWPI	inactive
AEFPVGSTA	inactive
MMMSTAVAF	inactive
FRMLAWHVL	inactive
EVFFGLSRY	inactive
ATYGWNLVK	inactive
